Measured values from different studies.
Compare with care: the assays were run in different laboratories. Values joined by “and” are separate records of one study, mostly repeats; a detail may differ. ± gives the spread as reported.
Melanocortin receptor 5: Melanocortin receptor 5 (Mus musculus, UniProt P41149)
UniProt P41149, sequence (whole entry, looked up): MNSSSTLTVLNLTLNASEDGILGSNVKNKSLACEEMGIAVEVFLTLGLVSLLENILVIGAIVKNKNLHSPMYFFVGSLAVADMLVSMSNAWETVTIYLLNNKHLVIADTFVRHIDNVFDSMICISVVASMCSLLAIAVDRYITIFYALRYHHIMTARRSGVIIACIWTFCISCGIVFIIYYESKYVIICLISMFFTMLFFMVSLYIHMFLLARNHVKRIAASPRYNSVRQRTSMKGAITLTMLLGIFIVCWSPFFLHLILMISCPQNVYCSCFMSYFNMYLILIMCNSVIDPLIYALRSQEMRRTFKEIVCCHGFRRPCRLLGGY
UniProt P02730, sequence (whole entry, looked up): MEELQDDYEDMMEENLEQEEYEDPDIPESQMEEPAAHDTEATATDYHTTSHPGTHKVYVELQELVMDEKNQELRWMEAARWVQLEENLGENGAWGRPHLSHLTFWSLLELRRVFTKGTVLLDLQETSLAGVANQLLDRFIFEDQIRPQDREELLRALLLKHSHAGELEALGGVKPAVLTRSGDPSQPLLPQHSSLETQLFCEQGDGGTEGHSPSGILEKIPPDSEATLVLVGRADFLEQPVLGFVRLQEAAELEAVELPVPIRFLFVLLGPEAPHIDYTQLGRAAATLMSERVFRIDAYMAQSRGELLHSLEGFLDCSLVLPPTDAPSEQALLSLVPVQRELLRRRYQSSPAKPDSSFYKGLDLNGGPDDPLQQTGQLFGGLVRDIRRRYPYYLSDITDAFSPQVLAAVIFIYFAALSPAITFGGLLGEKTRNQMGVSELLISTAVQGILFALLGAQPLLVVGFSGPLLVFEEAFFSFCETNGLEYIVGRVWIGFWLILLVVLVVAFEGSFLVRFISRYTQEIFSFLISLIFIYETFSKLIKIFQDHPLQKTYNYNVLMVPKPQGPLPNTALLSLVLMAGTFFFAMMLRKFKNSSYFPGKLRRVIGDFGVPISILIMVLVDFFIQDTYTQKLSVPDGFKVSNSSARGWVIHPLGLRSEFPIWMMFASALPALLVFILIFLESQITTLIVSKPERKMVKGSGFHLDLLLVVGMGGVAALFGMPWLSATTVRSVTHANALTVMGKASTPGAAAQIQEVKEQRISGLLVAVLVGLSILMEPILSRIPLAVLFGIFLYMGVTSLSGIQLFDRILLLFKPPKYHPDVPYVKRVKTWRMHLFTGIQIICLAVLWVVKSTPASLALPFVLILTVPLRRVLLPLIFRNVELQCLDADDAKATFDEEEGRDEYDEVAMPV
UniProt Q80W57, sequence (whole entry, looked up): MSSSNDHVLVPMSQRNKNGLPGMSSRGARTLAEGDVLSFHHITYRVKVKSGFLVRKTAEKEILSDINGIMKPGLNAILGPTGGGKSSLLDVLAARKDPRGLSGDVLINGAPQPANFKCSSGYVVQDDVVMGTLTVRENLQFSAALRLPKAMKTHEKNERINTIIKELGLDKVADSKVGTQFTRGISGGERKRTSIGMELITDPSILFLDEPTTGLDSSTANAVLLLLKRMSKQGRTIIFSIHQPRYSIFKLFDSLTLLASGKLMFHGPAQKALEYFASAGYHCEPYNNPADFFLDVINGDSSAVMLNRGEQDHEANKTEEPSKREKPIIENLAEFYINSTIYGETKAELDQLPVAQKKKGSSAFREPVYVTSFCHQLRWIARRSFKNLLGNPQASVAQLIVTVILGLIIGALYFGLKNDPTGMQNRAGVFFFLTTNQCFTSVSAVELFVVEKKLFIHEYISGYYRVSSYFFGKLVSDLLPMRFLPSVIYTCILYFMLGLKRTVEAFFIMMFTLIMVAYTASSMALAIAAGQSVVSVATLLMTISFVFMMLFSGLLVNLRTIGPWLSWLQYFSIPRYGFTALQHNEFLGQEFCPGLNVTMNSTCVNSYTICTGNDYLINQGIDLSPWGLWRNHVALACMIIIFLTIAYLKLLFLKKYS

`Cc1cc(O)c2c(c1)C(=O)c1cc(O)cc(O)c1C2=O` gave an IC50 of 22 µM (class I HDAC; enzyme activity; bovine heart lysate).
The Cmax of `O=C(O)c1cc(/N=N/c2ccc(S(=O)(=O)Nc3ccccn3)cc2)ccc1O` is reported as 80.1 ng/mL (Abcg2 (Rattus norvegicus, UniProt Q80W57); male Sprague-Dawley rat, plasma; oral, 2 mg/kg).
`O=C(OCc1ccccc1)c1ccccc1`: IC50 “inactive” (cysteine peptide Ac-RFAACAA-COOH; peptide depletion, DPRA RapidFire-MS/MS; 24 h, pH 7.5, room temperature, together with: 5.0 µM cysteine peptide).
The IC50 of `O=C1Nc2ccccc2/C1=C1/Nc2ccccc2C1=O` is reported as 15 µM (class I HDAC; enzyme activity, inhibitor).
The IC50 of `COc1ccc(/C=C/c2cc(O)cc(O[C@@H]3O[C@H](CO)[C@@H](O)[C@H](O)[C@H]3O)c2)cc1O` is reported as > 25 µg/mL (iNOS, mouse; NO production, inhibitor; RAW264.7; together with: LPS).
`CN1CCc2c(c3ccccc3n2Cc2ccc(C(=O)NO)cc2)C1` has an IC50 of 1.32 µM (histone deacetylase, mouse; inhibitor; GL261 cell nuclear extract).
The EC50 of `CSCC[C@H](NC(=O)[C@H](C)NC(=O)[C@H](Cc1ccc(O)cc1)NC(=O)[C@H](CO)NC(C)=O)C(=O)N[C@@H](CCC(=O)O)C(=O)N[C@@H](Cc1c[nH]cn1)C(=O)N[C@@H](Cc1ccccc1)C(=O)N[C@@H](CCCNC(=N)N)C(=O)N[C@@H](Cc1c[nH]c2ccccc12)C(=O)NCC(=O)N[C@@H](CCCCN)C(=O)N1CCC[C@H]1C(=O)N[C@H](C(N)=O)C(C)C` is reported as 0.00984 ± 0.00431 µM (Melanocortin receptor 5).
Under IC50, `CC(O)C(=O)O` (centres unmarked) is recorded as “inactive” (cysteine peptide Ac-RFAACAA-COOH; peptide depletion, DPRA RapidFire-MS/MS; 24 h, pH 7.5, room temperature, together with: 5.0 µM cysteine peptide).
With `O=C1c2c(O)cc(O)cc2O[C@H](c2cc(O)c(O)c(O)c2)[C@H]1O` the IC50 was 36 µM (class I HDAC; enzyme activity; bovine heart lysate).
The IC50 of `Cc1ccc(S(=O)(=O)N[C@@H](CCCCN)C(=O)CCl)cc1` is reported as 32 ± 3 µM (E1 Blattella germanica protease; covalent inhibitor; 1 h preincubation, together with: QAR-AMC).
`Nc1c2c(nc3ccccc13)CCCC2` has a Km of 31.5 ± 9.6 µM (sandwich-cultured primary rat hepatocytes; substrate).
For `Cc1cc(N)c2ccccc2[n+]1CCCCCCCCCC[n+]1c(C)cc(N)c2ccccc21`, the IC50 was 0.36 ± 0.0087 µM (CNG channel S4/S5-CNGA1, Bos taurus; cGMP-activated current, blocker, inside-out patch clamp; pH 7.2, room temperature, 0 mV holding, steps to +20 mV, together with: cGMP 2 mM).
The IC50 of `CC(C)(O)C(O)Cc1cc(/C=C/c2cc(O)cc(O)c2)ccc1O` (centres unmarked) is reported as > 25 µg/mL (iNOS, mouse; NO production, inhibitor; RAW264.7; together with: LPS).
`CC(CC=O)CCCC(C)(C)O` (centres unmarked) — result for IC50: “inactive” (cysteine peptide Ac-RFAACAA-COOH; peptide depletion, DPRA RapidFire-MS/MS; 24 h, pH 7.5, room temperature, together with: 5.0 µM cysteine peptide).
`NC[C@H]1O[C@H](O[C@H]2[C@H](O)[C@@H](O[C@H]3O[C@H](CO)[C@@H](O)[C@H](N)[C@H]3O)[C@H](N)C[C@@H]2N)[C@H](N)C[C@@H]1O` has an IC50 of 321 ± 14.5 µM (HIV-1 nucleocapsid protein-SL3 RNA complex; complex dissociation, ESI-FTMS; preformed complex ~3.5 µM).
`Brc1ccc(SSc2ccc(Br)cc2)cc1` gave an IC50 of 5.1 ± 0.5 µM (tubulin).
For `Clc1ccccc1`, IC50 read “inactive” (cysteine peptide Ac-RFAACAA-COOH; peptide depletion, DPRA RapidFire-MS/MS; 24 h, pH 7.5, room temperature, together with: 5.0 µM cysteine peptide).
With `Nc1nc2ccc(OC(F)(F)F)cc2s1` the IC50 was 31.4 µM (TRPM4 (EGFP-tagged); ion current, inhibitor, whole-cell nystatin-patch clamp; extracellular Ca2+ 2 mM, -50 mV, together with: A23187 20 µM, Cs+ carrier).
For `[Ca+2]`, the IC50 was 0.357 µM and 0.366 µM (cone cGMP-gated channel, Morone saxatilis; ion current, inside-out patch clamp; after EDTA/EGTA, -40 mV, together with: calmodulin 200 nM, cGMP 60 µM).
With `Nc1nc2c(ncn2[C@@H]2O[C@H](COP(=O)(O)O[P@](O)(=S)OP(=O)(O)O)[C@@H](O)[C@H]2O)c(=O)[nH]1` (single isomer, unassigned) the inhibition was 23% (Saccharomyces cerevisiae; vacuole fusion, inhibitor, in vitro vacuole fusion; 0.5 mM, 120 min, 25 °C).
For `O=C(O)[C@H]1O[C@@H](Oc2cc3oc(-c4ccccc4)cc(=O)c3c(O)c2O)[C@H](O)[C@@H](O)[C@@H]1O`, the IC50 was 52 µM (class I HDAC; enzyme activity; bovine heart lysate).
For `[I-].[K+]`, the Kd was 630 µM (SLC4A1 (Homo sapiens, UniProt P02730); Cl- exchange, inhibitor, 36Cl flux, two-site model; erythrocytes; pH 12, both sites protonated, unbuffered point excluded).
For `COc1ccc([C@@H]2CC(=O)c3c(O)cc(O)cc3O2)cc1O`, the IC50 was 91 ± 9.5 µM (human intestinal sulfotransferases; DHEA sulfation, radiometric; human intestine cytosol; together with: DHEA 2 µM).
The ΔG of `CC(C)C[C@H](NC(=O)[C@@H](NC(=O)[C@@H](N)[C@@H](C)O)C(C)C)C(=O)N1CCC[C@H]1C(=O)N1CCC[C@H]1C(=O)N1CCC[C@H]1C(=O)N1CCC[C@H]1C(=O)N[C@@H](Cc1ccc(O)cc1)C(=O)N[C@@H](CCCNC(=N)N)C(=O)N[C@@H](Cc1c[nH]cn1)C(=O)N[C@@H](C)C(=O)N[C@@H](CC(N)=O)C(=O)O` is reported as -6.08 ± 0.06 kcal/mol (Transcriptional coactivator YAP1, WW1 domain (YAP1, Homo sapiens, UniProt P46937); binding, ITC; pH 7.0, 25 °C, WW1 domain).
With `NC[C@@H]1O[C@H](O[C@H]2[C@@H](O)[C@H](O[C@@H]3[C@@H](O)[C@H](N)C[C@H](N)[C@H]3O[C@H]3O[C@H](CN)[C@@H](O)[C@H](O)[C@H]3N)O[C@@H]2CO)[C@H](N)[C@@H](O)[C@@H]1O` the IC50 was 31.1 ± 2.8 µM (HIV-1 nucleocapsid protein-SL3 RNA complex; complex dissociation, ESI-FTMS; preformed complex ~3.5 µM).
With `Cc1cccc(C)c1NC(=O)C1CCCN(Cc2ccccc2)C1` (centres unmarked) the IC50 was 38.5 ± 1.5 µM (sodium channel Nav1.4 (frog); tonic block of sodium current, vaseline-gap voltage clamp; Pelophylax lessonae semitendinosus fibres; 10 °C).
The IC50 of `Clc1ccccc1SSc1ccccc1Cl` is reported as 1.4 ± 0.2 µM (tubulin).
`O=c1c(O)c(-c2cc(O)c(O)c(O)c2)oc2cc(O)cc(O)c12` gave an IC50 of 20 µM (class I HDAC; enzyme activity; bovine heart lysate).
`Cc1cc(C)c(C)c(NC(=O)C2CCN(Cc3ccccc3)C2)c1C` (centres unmarked) has an IC50 of 17.2 ± 1.2 µM (sodium channel Nav1.4 (frog); tonic block of sodium current, vaseline-gap voltage clamp; Pelophylax lessonae semitendinosus fibres; 10 °C).
`CCCCCCC#CC(=O)OC` gave an IC50 of 351 µM (cysteine peptide Ac-RFAACAA-COOH; peptide depletion, DPRA RapidFire-MS/MS; 24 h, pH 7.5, room temperature, together with: 5.0 µM cysteine peptide).
For `Cc1cccc(C)c1NC(=O)C1CCN(Cc2ccccc2)C1` (racemic), the IC50 was 27.5 ± 1.1 µM (sodium channel Nav1.4 (frog); tonic block of sodium current, vaseline-gap voltage clamp; Pelophylax lessonae semitendinosus fibres; 10 °C).
With `CSCC[C@H](NC(=O)[C@H](CO)NC(=O)[C@H](Cc1ccc(O)cc1)NC(=O)[C@H](CO)NC(C)=O)C(=O)N[C@@H](CCC(=O)O)C(=O)N[C@@H](C)C(=O)N[C@@H](Cc1ccccc1)C(=O)N[C@@H](CCCNC(=N)N)C(=O)N[C@@H](Cc1c[nH]c2ccccc12)C(=O)NCC(=O)N[C@@H](CCCCN)C(=O)N1CCC[C@H]1C(=O)N[C@H](C(N)=O)C(C)C` the EC50 was 0.9 ± 0.35 µM (Melanocortin receptor 5).
With `O=c1cc(-c2ccc(O)c(O)c2)oc2cc(O)cc(O)c12` the IC50 was 12.4 µM (CYP3A; inhibitor; pooled human liver microsomes; no preincubation).
`CC(C=O)Cc1ccc(C(C)C)cc1` (centres unmarked) gave an IC50 of 29.1 µM (cysteine peptide Ac-RFAACAA-COOH; peptide depletion, DPRA RapidFire-MS/MS; 24 h, pH 7.5, room temperature, together with: 5.0 µM cysteine peptide).
`Cc1cccc(C)c1NC(=O)C1CN(Cc2ccccc2)CCN1` (centres unmarked) has an IC50 of 31.5 ± 0.8 µM (sodium channel Nav1.4 (frog); tonic block of sodium current, vaseline-gap voltage clamp; Pelophylax lessonae semitendinosus fibres; 10 °C).
`CCOC(=O)c1ccccc1C(=O)OCC` — result for IC50: “inactive” (cysteine peptide Ac-RFAACAA-COOH; peptide depletion, DPRA RapidFire-MS/MS; 24 h, pH 7.5, room temperature, together with: 5.0 µM cysteine peptide).
`O=c1c(O)c(-c2ccc(O)cc2)oc2cc(O)cc(O)c12` has an IC50 of 39 µM (class I HDAC; enzyme activity; bovine heart lysate).
For `Oc1ccc(/C=C/c2ccccc2)cc1O`, the IC50 was > 25 µg/mL (iNOS, mouse; NO production, inhibitor; RAW264.7; together with: LPS).
For `Nc1nc2c(ncn2[C@@H]2O[C@H](COP(=O)(O)OP(=O)(O)OP(O)(O)=S)[C@@H](O)[C@H]2O)c(=O)[nH]1`, the inhibition was 33% (Saccharomyces cerevisiae; vacuole fusion; 0.2 mM, 120 min, 25 °C, vacuoles preincubated and reisolated).
The IC50 of `Brc1ccccc1SSc1ccccc1Br` is reported as 1.2 ± 0.1 µM (tubulin).
`O=C1CCc2ccccc2O1` gave an IC50 of 69.5 µM (cysteine peptide Ac-RFAACAA-COOH; peptide depletion, DPRA RapidFire-MS/MS; 24 h, pH 7.5, room temperature, together with: 5.0 µM cysteine peptide).
With `O=c1cc(-c2ccc(O)cc2)oc2cc(O)cc(O)c12` the IC50 was 27 µM (class I HDAC; enzyme activity; bovine heart lysate).
For `Fc1ccc(SSc2ccc(F)cc2)cc1`, the IC50 was 1.9 ± 0.06 µM (tubulin).
For `CC(C)[C@H](NC(=O)[C@@H]1CCCN1C(=O)[C@H](CCCNC(=N)N)NC(=O)[C@H](CS)NC(=O)[C@H](Cc1c[nH]c2ccccc12)NC(=O)[C@H](CCCNC(=N)N)NC(=O)[C@@H](Cc1ccccc1)NC(=O)[C@H](Cc1c[nH]cn1)NC(=O)[C@H](CCC(=O)O)NC(=O)[C@H](CS)NC(=O)[C@H](CS)NC(=O)[C@H](CCCCN)NC(=O)[C@@H]1CC(=O)N[C@@H](CCCNC(=N)N)C(=O)N[C@@H](C)C(=O)N[C@@H](CC(=O)O)C(=O)N[C@H](Cc2ccc(O)cc2)C(=O)N1)C(N)=O` [technetium-99m labelled], the tissue uptake was 1.55 ± 0.42 %ID (C57 mice, intestines; iv, 0.037 MBq, 4 h).

Some of these lines once more:
`Cc1cc(C)c(C)c(NC(=O)C2CCN(Cc3ccccc3)C2)c1C` (centres unmarked) has an IC50 of 17.2 ± 1.2 µM (sodium channel Nav1.4 (frog); tonic block of sodium current, vaseline-gap voltage clamp; Pelophylax lessonae semitendinosus fibres; 10 °C).
For `Oc1ccc(/C=C/c2ccccc2)cc1O`, the IC50 was > 25 µg/mL (iNOS, mouse; NO production, inhibitor; RAW264.7; together with: LPS).
The IC50 of `Clc1ccccc1SSc1ccccc1Cl` is reported as 1.4 ± 0.2 µM (tubulin).
`Cc1cccc(C)c1NC(=O)C1CN(Cc2ccccc2)CCN1` (centres unmarked) has an IC50 of 31.5 ± 0.8 µM (sodium channel Nav1.4 (frog); tonic block of sodium current, vaseline-gap voltage clamp; Pelophylax lessonae semitendinosus fibres; 10 °C).
